Experimental data of several laboratories.
Every numbered part comes from another study and shows a few of its results, in no order.

Study 1
Target: Histone acetyltransferase KAT6A, winged helix 1, GST fusion (KAT6A, Homo sapiens, UniProt Q92794, residues 1-85)
Method: protein binding microarray
Molecule type: double-stranded DNA, one strand shown
Sample: in vitro
Concentration: not given
Notes: 8-mer, flanks averaged, mean of 2 arrays, mostly near background
Baseline: not given
Reading: higher = stronger binding
Residues (chain): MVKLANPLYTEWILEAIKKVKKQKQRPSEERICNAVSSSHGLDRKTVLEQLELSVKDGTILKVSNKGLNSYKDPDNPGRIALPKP
| Sequence | E-score |
| --- | --- |
| CCTGACTC | -0.0306 |
| CAGGCACC | -0.117 |
| CTACTTCA | -0.178 |
| AACGTCCG | 0.163 |
| AGTTTCGC | -0.0729 |
| TAACGAAA | -0.102 |
| CATCTACG | 0.276 |
| GCAATGGC | 0.0279 |
| GCGCGTAC | 0.433 |
| GAGCCGGA | 0.106 |
| AGGTAGAG | -0.147 |
| AGGAGCTA | -0.0332 |
| ACGCTCGG | 0.288 |
| AACGGAAC | 0.156 |
| AAAGAAAA | -0.124 |
| ACCAGAAG | -0.199 |
| ATCCGATA | 0.072 |
| GAGACCAC | -0.0946 |
| CCTGCCAG | -0.312 |
| CTCCGTTA | 0.0749 |
| CCCCGCAA | 0.259 |
| AATGTTCT | -0.233 |
| GTCCAAAA | -0.073 |
| GATGTCGA | -0.0741 |
| CACCATTC | -0.145 |

Study 2
Target: Sal-like protein 4, full length isoform B (SALL4, Homo sapiens, UniProt Q9UJQ4-2, residues 1-616)
Method: universal PBM
Molecule type: double-stranded DNA, one strand shown
Sample: in vitro
Concentration: not given
Notes: 8-mer, flanks averaged, mean of replicates
Reading: higher = stronger binding
Target sequence (chain): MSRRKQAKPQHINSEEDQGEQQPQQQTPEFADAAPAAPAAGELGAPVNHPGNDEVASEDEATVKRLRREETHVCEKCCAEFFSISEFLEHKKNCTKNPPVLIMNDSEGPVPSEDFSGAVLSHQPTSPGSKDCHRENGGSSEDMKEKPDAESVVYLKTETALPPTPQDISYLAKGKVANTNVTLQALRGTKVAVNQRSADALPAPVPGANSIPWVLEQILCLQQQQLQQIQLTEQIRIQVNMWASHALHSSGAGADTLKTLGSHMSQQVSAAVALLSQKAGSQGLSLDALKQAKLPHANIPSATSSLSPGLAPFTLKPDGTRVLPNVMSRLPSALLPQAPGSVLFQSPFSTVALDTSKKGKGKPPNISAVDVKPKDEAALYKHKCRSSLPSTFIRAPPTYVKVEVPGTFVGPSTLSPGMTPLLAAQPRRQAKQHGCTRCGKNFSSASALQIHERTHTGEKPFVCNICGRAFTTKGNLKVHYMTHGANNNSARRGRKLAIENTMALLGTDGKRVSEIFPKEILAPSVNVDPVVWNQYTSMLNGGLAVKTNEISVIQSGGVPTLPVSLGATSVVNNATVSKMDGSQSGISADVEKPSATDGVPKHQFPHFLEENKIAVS
| Sequence | E-score |
| --- | --- |
| CCCTTACC | -0.0686 |
| AGGGCCTA | -0.198 |
| GCGCCCCA | -0.386 |
| ACCGCGGT | -0.223 |
| TAGCCAAA | 0.173 |
| ATTTTTTC | 0.368 |
| GTCATCAC | 0.0317 |
| AAGGGCAT | 0.00885 |
| CTCACGCC | -0.349 |
| ATAAGTAT | 0.317 |
| GACTAGTC | -0.184 |
| CATTCGCA | 0.0748 |
| AATCACGG | 0.0857 |
| TCAGCCAA | -0.0434 |
| ACTTCCTG | -0.0983 |
| GGGAAGGA | -0.139 |
| CAACAGGC | -0.154 |
| GGAGATCC | -0.24 |
| ATTTTATA | 0.386 |
| AAAACAGA | 0.188 |
| ACGGACTA | 0.0519 |
| GTATCGTA | 0.199 |
| GTATACTA | 0.14 |
| CACACCCC | -0.125 |
| GTGTCAAA | 0.162 |

Study 3
Target: Ras GTPase-activating protein-binding protein 1, C-terminal RGG region (G3BP1, Homo sapiens, UniProt Q13283)
Chain of UniProt Q13283 (whole entry, looked up): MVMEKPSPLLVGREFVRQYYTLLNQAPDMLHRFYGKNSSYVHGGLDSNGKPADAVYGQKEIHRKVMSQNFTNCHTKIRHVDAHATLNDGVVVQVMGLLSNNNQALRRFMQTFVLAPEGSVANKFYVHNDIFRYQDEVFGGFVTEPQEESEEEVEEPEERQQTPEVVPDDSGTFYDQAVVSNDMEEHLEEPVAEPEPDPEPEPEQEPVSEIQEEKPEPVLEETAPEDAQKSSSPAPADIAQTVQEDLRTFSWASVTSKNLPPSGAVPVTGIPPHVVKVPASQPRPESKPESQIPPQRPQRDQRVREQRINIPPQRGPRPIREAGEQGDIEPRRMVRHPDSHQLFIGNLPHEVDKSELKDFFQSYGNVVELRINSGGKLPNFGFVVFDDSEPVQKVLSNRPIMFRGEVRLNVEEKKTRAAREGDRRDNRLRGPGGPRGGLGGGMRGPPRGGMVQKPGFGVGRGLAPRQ
Method: RNA Bind-n-Seq
Molecule type: RNA
Sample: in vitro
Concentration: 1 µM
Notes: whole 134-nt RNA, ends assumed
Together with: 150 mM KCl
Baseline: input library
Reading: higher = stronger binding
Constant ends, left off below: GGGAGUUCUACAGUCCGACGAUC … UGGAAUUCUCGGGUGUCAAGG
| Sequence | log2 enrichment |
| --- | --- |
| CCUGCUUUUGGGGGUGACCGCCGGAGCGCGGCGUGAGCCCUCCCCCUUGGGAUCCCGCAGCUGACCAGUCGCGCUGACGGACAGACAGAC | -2.66 |
| AGUCCUGUGCUACACAUCGUAUGUACCGAAUCGGGGUGGGGUUUGGGGAAAAAGGGGAAAGUAUUAUGUUACGCCGUUCGGAUCUGCACU | 1.63 |
| GUCCUGUGCUACACAUCGUAUGUACCGAAUCGGGGCCCCCGGGGCCCCCGGCCCCCGGAAAGUAUUAUGUUACGCCGUUCGGAUCUGCAC | -1.46 |
| CCUCAAGUCCUGUGCUACACAUCGUAUGUACCGAAUCGGAAAGGUUUGGAGGAAAGUAUUAUGUUACGCCGUUCGGAUCUGCACUUCCAG | -0.623 |
| GACUCUGAAGAAGAAGCUAUGGAGACUACACCAGCCAAAGGAAAGAAAGCUGCAAAAGUUGUUCCUGUGAAAGCCAAGAACGUGGCUGAG | -1.9 |
| CCUGUGCUACACAUCGUAUGUACCGAAUCGGAAAAAAAGGAAAAAAAGGGGAAAAAAAGGGAAAGUAUUAUGUUACGCCGUUCGGAUCUG | -1.86 |
| CCUCAAGUCCUGUGCUACACAUCGUAUGUACCGAAUCGGUUGGGUUGGGUUGGAAAGUAUUAUGUUACGCCGUUCGGAUCUGCACUUCCA | -0.967 |
| CCUCAAGUCCUGUGCUACACAUCGUAUGUACCGAAUCGGAAAGGUGGUUUGGAAAGUAUUAUGUUACGCCGUUCGGAUCUGCACUUCCAG | -1.2 |
| CUCAAGUCCUGUGCUACACAUCGUAUGUACCGAAUCGGGCCGGCCGGGGCCGGAAAGUAUUAUGUUACGCCGUUCGGAUCUGCACUUCCA | -0.986 |
| AAGUCCUGUGCUACACAUCGUAUGUACCGAAUCGGGAAAAAGGGUUUGGGUUUGGGAAAGUAUUAUGUUACGCCGUUCGGAUCUGCACUU | 1.5 |
| CCUGUGCUACACAUCGUAUGUACCGAAUCGGGGCCCCCCGGCCCCCCGGGGCCCCCCGGGGAAAGUAUUAUGUUACGCCGUUCGGAUCUG | -1.46 |
| UCCUGUGCUACACAUCGUAUGUACCGAAUCGGGAAAAAAAGGGAAAAAGGGAAAAAGGGAAAGUAUUAUGUUACGCCGUUCGGAUCUGCA | -0.674 |
| AGAGAAUAAGAAUUCAGCUGACAGGAGGCCUCUAUCCUGUCCCUCCACCCCACCCUCCACCUCAAUCCCCUCCCAUCUUCCCCAGACCUA | 0.239 |
| UGGGAGGUGGAUUUUGUUUAUUUUUUUAGCUCAUUUCCAGGGGUGGGAAUUUUUUUUUAAUAUGUGUCAUGAAUAAAGUUCUUUUUGAAA | 3.63 |

Study 4
Target: Centromere-binding protein 1, full length, N-terminal tag (CBF1, Saccharomyces cerevisiae, UniProt P17106, residues 1-351)
Chain of UniProt P17106 (whole entry, looked up): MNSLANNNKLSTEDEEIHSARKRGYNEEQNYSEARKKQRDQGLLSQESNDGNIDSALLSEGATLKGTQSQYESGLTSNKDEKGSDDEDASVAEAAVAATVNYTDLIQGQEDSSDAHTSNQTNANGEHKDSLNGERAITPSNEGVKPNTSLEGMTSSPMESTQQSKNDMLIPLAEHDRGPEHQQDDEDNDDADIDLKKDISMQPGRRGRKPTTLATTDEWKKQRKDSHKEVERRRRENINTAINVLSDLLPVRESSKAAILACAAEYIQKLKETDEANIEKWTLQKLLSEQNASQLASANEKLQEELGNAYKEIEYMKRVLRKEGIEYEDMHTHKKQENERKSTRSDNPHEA
Method: protein-binding microarray
Molecule type: double-stranded DNA, one strand shown
Sample: in vitro
Concentration: 0.8 µM
Notes: whole 60-bp probe, no competitor
Reading: higher = stronger binding
Constant ends, left off below: … GTCTTGATTCGCTTGACGCTGCTG
| Sequence | fluorescence intensity [a.u.] |
| --- | --- |
| CCTAACTACTATAGACGCGTGCAATAGCTTCGTACA | 568 |
| CTAGTATTGATCAATTACGTGAGTCAGCTTTTTTTC | 535 |
| GAATTATGTATATGTGACGTGTATGTATTTGTATAG | 588 |
| CTATCTCCGCATACCACGTCCATATCAGTGAAATTC | 589 |
| CTACACGAGATCCATCTCGTGACCGTGAAAAAATTC | 5420 |
| GAATATTTAAGGTGTCACGGTGATTGCAAGATGTAG | 778 |
| GAACTTGAAAACGTGCATGTGATGATGGCATCGTAG | 2250 |
| CTAAATCTAAAAGCTGATGTAGTAGAAGATCCTTTC | 506 |
| CCTAACTACTATATTCACGTTAAATAGCTTCGTACA | 551 |
| CTAAGTTTTGAATAACACGTGCCTTTGATTTTTTTC | 9000 |
| GAACTTCCTCCGCATCAGCTGGGAAAGAGGCGTTAG | 510 |
| CTAGCGCTATTTTGTCACCTTTAACTTGGCATATTC | 539 |
| CCTAACTACTATATTAATGTGCAATAGCTTCGTACA | 498 |
| GAACTAAACAATGCAAACGTGTTTTTTCACTTGTAG | 549 |
| GAAGTACATACGCATGTGGCAATATGCCAAAGCTAG | 579 |
| GAAGGTAATCCCACCCATGTGGCCGTGCCATTCTAG | 542 |
| TGTACGAAGCTATTTCACATGGGTATAGTAGTTAGG | 579 |
| CTATTTTCTTGAGTGTGCGTGATGTTGTGTGTGTTC | 708 |
| GAATGTCACCATGGTCAGATGACCATATTATTTTAG | 6170 |
| GAATTGGATTTTCGTGGTGAGGGGACCTGAGGGTAG | 508 |
| GAAACCAGTGGCACACACGTGAACTACATCACTTAG | 1830 |
| CTACTGTATGATTATCAGTTGAGTTGGTGAGATTTC | 493 |
| GAACATTGGCTTGTGATCATCATCGAAATTGATTAG | 645 |
| CTACGTATATATAGCCACGTAAACCTCACACTATTC | 533 |
| CTACAATGCTGCGATCACGAAAATTATCAACATTTC | 600 |

Study 5
Target: RNA binding protein fox-1 homolog 2, RRM domain, GST-SBP tag (RBFOX2, Homo sapiens, UniProt O43251-10, residues 100-194)
Method: RNA Bind-n-Seq
Molecule type: RNA
Sample: in vitro
Concentration: 365 nM
Notes: natural RNA segment, single round, ends assumed
Baseline: no-protein control
Reading: higher = stronger binding
Constant ends, left off below: GGGAGUUCUACAGUCCGACGAUC … UGGAAUUCUCGGGUGCCAA
Residues (chain): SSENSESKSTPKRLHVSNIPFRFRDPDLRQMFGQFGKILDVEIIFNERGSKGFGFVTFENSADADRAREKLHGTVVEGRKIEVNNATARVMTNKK
| Sequence | RBNS enrichment (R) |
| --- | --- |
| GCCUUCAAGAGUCUUCUUAAUGUUCUCCCACAGGGCUCUUUCUGAGUGCCCUAUAAUCCCUCCCCCCUUUCUAAUUCAAUAUCUGGAGUAAGGAAUUCUUGGGUAGGGCA | 0.374 |
| UUACUCCCCCUGAGCAGCGAGCCUGCGUCUGUCUCAGCUGUCCAGCGCUGAGGGCCAGGGUCUUGUGCUGUGGGGCUGGGGGAUGCCCUCUUUUCUAUAUUUAUUUCAUA | 0.457 |
| GAGAGAUGGCUCAGUGGUUAAGAGCACCGACUGCUCUUCCAGAGGUCCUGUGUUCAAUUCCCAGCAACCACAUGGUGGCUCACAACCAUCCGUAAUGAGAUCUGAUGCCC | 0.33 |
| AAAUGUCCCAUAGUCCUCUCACACCCUGUGUUCCAGCCUUCAGUGUUUGGACAGAGCACCACUGUCACCAAGGAGCCUGUGUGAGACACACUGCUGAGACUGCCUCUUGU | 0.463 |
| AGAAAGAAUCCCCUGAACUUUUCAAGGGGUUUAUAUGGUAGCACCAAAUGGAGAAUGAGCAUCUAAAAAUGACACAUCCCGAAAGGGCAAUCUGUGGAAGUUUGUUGUUU | 0.429 |
| UGCUGUGCGGCUUCACCAGCGGUUGGGAUUGGCCCAGCUUGGAGUGCUUGUGUGGUCCAACCUCAGUCUGGCCCCAUAGCGACUUUUGCCCCAUGAUUCUGCUUCACUGU | 0.6 |
| GGUGGCUGUUUAUUCUCUCUAACCAGCUCUGUUAGAUAUUUCCUCUAAUCAAGCUAAUUGGUUACUGAAAUGACAUAUUUAUCCCAACUUCUGUACCUUUGCACAAACUC | 1.15 |
| CUUAUACAUUCCUGUACAGAAAUUACGAUUUUGUGAUUACAGUAAUAAAAUGAUAUUCCUUGUGAAAUAUUAGUAACAAAUUAUUUGGGUAUUUAAACAUUAGGAAUCUU | 0.386 |
| UAUAUAUAUACACAUAUAUAUGACAUGUAAGAGUCACUUUUAUUUAUCUGUCUUUGUUCACUUAUGAAGCCGGUAACUGCAGCAGUAUGUUGGUGAUGUCAUGAUGCACA | 0.518 |
| UAUUUAUUUUUAAAAAGAAAAGGUGGAGGAACCAAUAUCAACUUGUACAUAAUGAAAAUAUGCGUGUACAUAUAUUUUCCUUCUUGACACUACUUGAUCAUUAUAUCAAG | 0.474 |
| GCUUCAAGUUGAAUAUGUAUUGUGUAUAUACCUCAAGUUCAGGUUAAUGGCUUUGAUUUGUGCUCUAAAGCAAAGCAAAUAACACAGGUUAAUGGUAACUUGUUGUUCUC | 0.446 |
| AAUCUAUGACUCCCAAUAUCUUCUAGAAUAAAGAAUUUUCCCUCUUUAACACAAGGGCCCUCCUUGUCAUUGACCUUAGCUAAACCAUGGCAAUUCAUAAAUAGAGGAAA | 0.439 |

For quick reference, copied from above (study 1):
| Sequence | E-score |
| --- | --- |
| CCCCGCAA | 0.259 |
| ACCAGAAG | -0.199 |
| CAGGCACC | -0.117 |
| GTCCAAAA | -0.073 |
| CTCCGTTA | 0.0749 |
| AAAGAAAA | -0.124 |
| CACCATTC | -0.145 |
| TAACGAAA | -0.102 |
| AACGGAAC | 0.156 |
| AATGTTCT | -0.233 |
| AGGAGCTA | -0.0332 |
